Experimental data collected from several papers.
Every numbered part comes from another study and shows a few of its results, in no order.
UniProt O94921, sequence (whole entry, looked up): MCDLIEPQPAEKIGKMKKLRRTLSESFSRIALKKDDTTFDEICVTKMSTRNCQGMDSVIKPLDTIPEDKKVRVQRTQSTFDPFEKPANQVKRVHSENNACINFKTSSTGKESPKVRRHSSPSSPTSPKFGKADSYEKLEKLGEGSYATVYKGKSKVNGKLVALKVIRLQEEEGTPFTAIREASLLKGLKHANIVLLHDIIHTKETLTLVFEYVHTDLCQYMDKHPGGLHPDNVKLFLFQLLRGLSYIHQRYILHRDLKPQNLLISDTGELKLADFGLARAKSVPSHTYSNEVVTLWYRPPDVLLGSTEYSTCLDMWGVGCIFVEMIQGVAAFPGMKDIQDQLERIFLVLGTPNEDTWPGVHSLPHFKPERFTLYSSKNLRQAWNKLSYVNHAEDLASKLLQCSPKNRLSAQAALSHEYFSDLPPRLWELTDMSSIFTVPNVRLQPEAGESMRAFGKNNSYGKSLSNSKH
UniProt Q9C098, sequence (whole entry, looked up): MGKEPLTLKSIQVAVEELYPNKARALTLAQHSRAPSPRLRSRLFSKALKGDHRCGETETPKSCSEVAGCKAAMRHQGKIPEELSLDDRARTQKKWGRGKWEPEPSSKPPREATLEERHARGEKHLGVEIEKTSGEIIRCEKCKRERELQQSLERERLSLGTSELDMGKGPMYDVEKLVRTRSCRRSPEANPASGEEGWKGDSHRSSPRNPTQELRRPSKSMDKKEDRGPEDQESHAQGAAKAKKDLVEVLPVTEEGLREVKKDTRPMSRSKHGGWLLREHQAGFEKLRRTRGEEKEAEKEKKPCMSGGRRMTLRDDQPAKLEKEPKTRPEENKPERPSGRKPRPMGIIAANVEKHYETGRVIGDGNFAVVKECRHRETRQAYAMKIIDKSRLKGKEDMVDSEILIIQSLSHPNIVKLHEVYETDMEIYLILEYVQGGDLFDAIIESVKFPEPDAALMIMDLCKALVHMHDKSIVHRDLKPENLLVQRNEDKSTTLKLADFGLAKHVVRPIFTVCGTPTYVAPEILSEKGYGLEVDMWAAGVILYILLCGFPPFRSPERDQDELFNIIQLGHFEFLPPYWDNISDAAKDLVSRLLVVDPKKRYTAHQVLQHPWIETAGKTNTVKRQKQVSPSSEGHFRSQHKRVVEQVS
UniProt Q86YV6, sequence (whole entry, looked up): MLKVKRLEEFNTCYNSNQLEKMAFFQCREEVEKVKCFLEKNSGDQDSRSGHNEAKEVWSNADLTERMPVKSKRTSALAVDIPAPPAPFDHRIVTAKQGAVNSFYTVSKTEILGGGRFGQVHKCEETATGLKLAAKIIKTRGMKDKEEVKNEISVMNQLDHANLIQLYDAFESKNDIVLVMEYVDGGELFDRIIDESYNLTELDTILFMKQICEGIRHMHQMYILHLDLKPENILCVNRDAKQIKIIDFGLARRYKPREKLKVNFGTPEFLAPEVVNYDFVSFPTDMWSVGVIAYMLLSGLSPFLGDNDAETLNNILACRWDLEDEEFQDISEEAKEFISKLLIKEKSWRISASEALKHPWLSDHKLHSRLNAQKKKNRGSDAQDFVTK
UniProt Q16566, sequence (whole entry, looked up): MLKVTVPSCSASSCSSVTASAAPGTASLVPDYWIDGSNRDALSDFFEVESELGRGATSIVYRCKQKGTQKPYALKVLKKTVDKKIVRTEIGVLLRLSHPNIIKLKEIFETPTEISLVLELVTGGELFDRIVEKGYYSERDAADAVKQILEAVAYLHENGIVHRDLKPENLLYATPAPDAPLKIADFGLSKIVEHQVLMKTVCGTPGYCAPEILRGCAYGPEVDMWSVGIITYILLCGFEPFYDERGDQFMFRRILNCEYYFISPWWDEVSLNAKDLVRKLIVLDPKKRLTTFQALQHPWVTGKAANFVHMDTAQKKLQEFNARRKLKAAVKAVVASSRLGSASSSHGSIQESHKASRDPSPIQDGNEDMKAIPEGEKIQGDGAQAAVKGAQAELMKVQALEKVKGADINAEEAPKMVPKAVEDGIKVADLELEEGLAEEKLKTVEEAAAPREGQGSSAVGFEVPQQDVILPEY
UniProt P22455, sequence (whole entry, looked up): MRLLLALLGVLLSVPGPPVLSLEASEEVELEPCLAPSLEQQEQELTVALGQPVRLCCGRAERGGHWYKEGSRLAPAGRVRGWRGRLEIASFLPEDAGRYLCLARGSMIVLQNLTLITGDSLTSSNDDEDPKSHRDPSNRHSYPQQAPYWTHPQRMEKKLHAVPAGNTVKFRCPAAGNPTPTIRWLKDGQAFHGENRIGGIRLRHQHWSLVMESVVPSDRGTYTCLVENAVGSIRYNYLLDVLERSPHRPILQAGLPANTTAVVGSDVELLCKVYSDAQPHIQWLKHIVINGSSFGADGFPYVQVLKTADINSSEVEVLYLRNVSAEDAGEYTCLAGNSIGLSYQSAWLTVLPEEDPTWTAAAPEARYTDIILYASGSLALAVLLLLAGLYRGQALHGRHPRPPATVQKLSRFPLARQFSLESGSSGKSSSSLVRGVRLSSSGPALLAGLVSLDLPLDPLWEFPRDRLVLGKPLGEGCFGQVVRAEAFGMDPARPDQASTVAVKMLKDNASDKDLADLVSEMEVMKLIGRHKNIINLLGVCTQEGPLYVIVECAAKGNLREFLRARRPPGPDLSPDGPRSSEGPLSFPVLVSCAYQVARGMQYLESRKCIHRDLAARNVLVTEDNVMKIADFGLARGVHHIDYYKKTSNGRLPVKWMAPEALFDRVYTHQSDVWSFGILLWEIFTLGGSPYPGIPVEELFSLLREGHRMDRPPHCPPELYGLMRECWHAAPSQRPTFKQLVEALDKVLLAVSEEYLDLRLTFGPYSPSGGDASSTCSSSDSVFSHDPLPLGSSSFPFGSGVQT
UniProt Q96BR1, sequence (whole entry, looked up): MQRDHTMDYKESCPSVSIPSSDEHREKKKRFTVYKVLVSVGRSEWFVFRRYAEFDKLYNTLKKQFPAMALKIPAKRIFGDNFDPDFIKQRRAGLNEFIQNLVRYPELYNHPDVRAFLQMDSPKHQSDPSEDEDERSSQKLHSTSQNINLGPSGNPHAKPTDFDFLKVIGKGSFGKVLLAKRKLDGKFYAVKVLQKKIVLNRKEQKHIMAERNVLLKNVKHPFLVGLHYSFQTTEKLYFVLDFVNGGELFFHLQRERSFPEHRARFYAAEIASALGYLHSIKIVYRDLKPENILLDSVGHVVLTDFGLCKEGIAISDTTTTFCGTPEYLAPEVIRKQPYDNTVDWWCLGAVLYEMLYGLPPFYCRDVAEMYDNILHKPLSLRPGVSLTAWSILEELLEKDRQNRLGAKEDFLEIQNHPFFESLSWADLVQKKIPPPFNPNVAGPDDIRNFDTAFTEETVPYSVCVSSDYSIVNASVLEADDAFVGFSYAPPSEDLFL
UniProt P53355, sequence (whole entry, looked up): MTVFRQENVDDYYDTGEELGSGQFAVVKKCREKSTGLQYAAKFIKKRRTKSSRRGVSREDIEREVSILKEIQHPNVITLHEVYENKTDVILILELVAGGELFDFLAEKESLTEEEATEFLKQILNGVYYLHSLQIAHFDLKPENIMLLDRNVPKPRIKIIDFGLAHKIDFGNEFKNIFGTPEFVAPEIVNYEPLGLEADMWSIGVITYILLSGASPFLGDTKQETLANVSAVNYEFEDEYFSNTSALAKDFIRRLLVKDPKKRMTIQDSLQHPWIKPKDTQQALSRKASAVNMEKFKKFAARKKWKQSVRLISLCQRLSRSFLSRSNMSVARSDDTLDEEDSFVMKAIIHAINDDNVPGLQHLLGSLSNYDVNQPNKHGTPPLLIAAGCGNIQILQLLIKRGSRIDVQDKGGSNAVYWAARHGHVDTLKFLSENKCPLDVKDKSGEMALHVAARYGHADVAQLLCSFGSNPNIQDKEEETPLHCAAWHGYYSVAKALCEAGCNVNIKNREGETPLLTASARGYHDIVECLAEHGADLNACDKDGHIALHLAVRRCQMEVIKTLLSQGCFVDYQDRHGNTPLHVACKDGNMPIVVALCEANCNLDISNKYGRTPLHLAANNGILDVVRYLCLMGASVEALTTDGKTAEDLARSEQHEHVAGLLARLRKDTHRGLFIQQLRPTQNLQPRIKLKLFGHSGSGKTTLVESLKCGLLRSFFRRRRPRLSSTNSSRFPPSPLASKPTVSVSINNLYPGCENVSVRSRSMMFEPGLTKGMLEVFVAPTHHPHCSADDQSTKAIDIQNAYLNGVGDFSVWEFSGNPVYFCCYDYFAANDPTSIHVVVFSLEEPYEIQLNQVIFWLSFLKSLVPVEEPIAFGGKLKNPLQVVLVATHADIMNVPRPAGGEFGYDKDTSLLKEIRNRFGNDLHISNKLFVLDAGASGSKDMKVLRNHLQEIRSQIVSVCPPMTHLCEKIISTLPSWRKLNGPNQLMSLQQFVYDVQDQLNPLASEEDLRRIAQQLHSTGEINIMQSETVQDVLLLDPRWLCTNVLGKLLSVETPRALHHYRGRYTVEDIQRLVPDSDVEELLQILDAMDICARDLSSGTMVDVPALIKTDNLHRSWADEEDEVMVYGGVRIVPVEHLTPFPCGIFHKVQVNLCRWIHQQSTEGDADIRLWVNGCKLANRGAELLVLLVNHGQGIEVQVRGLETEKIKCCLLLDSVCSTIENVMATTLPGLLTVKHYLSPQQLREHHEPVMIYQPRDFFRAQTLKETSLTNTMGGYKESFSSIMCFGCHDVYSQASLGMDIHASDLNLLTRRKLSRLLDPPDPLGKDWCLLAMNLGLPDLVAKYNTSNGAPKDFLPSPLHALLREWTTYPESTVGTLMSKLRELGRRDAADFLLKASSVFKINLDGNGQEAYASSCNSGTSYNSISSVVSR
UniProt P52564, sequence (whole entry, looked up): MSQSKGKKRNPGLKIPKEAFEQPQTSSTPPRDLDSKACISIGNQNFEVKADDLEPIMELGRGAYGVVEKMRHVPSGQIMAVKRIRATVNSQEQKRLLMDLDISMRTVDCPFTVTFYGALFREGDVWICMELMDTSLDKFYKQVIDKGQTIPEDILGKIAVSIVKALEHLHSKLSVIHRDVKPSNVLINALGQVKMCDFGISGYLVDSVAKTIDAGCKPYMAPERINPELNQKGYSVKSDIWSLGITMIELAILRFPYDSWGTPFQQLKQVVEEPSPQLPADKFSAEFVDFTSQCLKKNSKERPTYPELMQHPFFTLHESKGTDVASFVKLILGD

Set 1
SMILES: CC(C)n1cnc(-c2ccc(F)cc2)c1-c1ncc(C(=O)Nc2ccc(N3CCN(C)CC3)cc2)[nH]1
Technique: phase 2a trial
Host: idiopathic pulmonary fibrosis patients
For 60 mg once daily, adverse event grade 1: “patients with aortic valve incompetence” read 0%.
For dose not given, adverse event grade 3, all dose arms pooled: “patients with aortic valve incompetence” read 0%.
The “patients with aortic valve incompetence” was 0% (dose not given, adverse event grade 5, all dose arms pooled).
For 30 mg once daily, adverse event grade 2: “patients with aortic valve incompetence” read 0%.
60 mg once daily, adverse event grade 2 — “patients with aortic valve incompetence”: 0%.
The “patients with aortic valve incompetence” was 0% (60 mg once daily, adverse event grade 4).
30 mg once daily, adverse event grade 1 — “patients with aortic valve incompetence”: 1%.
For 60 mg once daily, adverse event grade 3: “patients with aortic valve incompetence” read 0%.
The “patients with aortic valve incompetence” was 0% (30 mg once daily, adverse event grade 4).
It gave 0% for “patients with aortic valve incompetence” (60 mg once daily, adverse event grade 5).

Set 2
Organism: Sarcocystis neurona
Effect on: parasite growth
Tested at: 10 µM
Notes: secondary screen
The inhibition of NC(=O)c1ncn([C@@H]2O[C@H](CO)[C@@H](O)[C@H]2O)n1 is reported as -44.9%.
With COc1ccc2c3c1O[C@H]1C[C@@H](O)C=C[C@@]31CCN(C)C2 the inhibition was -33.2%.
CCCOc1ccc(C(=O)OCCN(CC)CC)cc1N has an inhibition of -28.1%.
For C[C@H]1C[C@H]2[C@@H]3CCC4=CC(=O)C=C[C@]4(C)[C@@]3(F)[C@@H](O)C[C@]2(C)[C@@]1(O)C(=O)CO, the inhibition was -50.9%.
With CCC(=O)OCC(=O)[C@@]1(OC(=O)CC)[C@@H](C)C[C@H]2[C@@H]3CCC4=CC(=O)C=C[C@]4(C)[C@@]3(Cl)[C@@H](O)C[C@@]21C the inhibition was -30%.
For CC1(C)O[C@@H]2C[C@H]3[C@@H]4C[C@H](F)C5=CC(=O)C=C[C@]5(C)[C@H]4[C@@H](O)C[C@]3(C)[C@]2(C(=O)CO)O1, the inhibition was -32.4%.
Nc1ccn([C@@H]2O[C@H](CO)[C@@H](O)[C@@H]2O)c(=O)n1 has an inhibition of -61%.
The inhibition of CC1=C(C/C=C(\C)CCC[C@H](C)CCC[C@H](C)CCCC(C)C)C(=O)c2ccccc2C1=O is reported as -33.7%.
CN1CCN(c2c(F)cc3c(=O)c(C(=O)O)cn4c3c2SCC4)CC1.Cl gave an inhibition of -24.7%.
COc1ccc([C@@H]2Sc3ccccc3N(CCN(C)C)C(=O)[C@@H]2OC(C)=O)cc1 gave an inhibition of 8.7%.
The inhibition of O=C(c1ccccc1)c1ccc2n1CCC2C(=O)O (centres unmarked) is reported as -67.7%.
The inhibition of O=C(O)COCCN1CCN(C(c2ccccc2)c2ccc(Cl)cc2)CC1 (centres unmarked) is reported as -5.6%.
COC(=O)C1=C(C)NC(C)=C(C(=O)OC(C)C)C1c1cccc2nonc12 (centres unmarked) has an inhibition of -68.5%.
CC(=O)CCCCn1cnc2c1c(=O)n(C)c(=O)n2C has an inhibition of -12.2%.
The inhibition of COc1ccc(CC(C)NCC(O)c2ccc(O)c(NC=O)c2)cc1.COc1ccc(CC(C)NCC(O)c2ccc(O)c(NC=O)c2)cc1.O.O.O=C(O)/C=C/C(=O)O (centres unmarked) is reported as -38.6%.
With Cc1ncc([N+](=O)[O-])n1CC(C)O (centres unmarked) the inhibition was -23%.
For C[C@]12C=CC(=O)C=C1CC[C@@H]1[C@@H]2[C@@H](O)C[C@@]2(C)[C@H]1CC[C@]2(O)C(=O)CO, the inhibition was -28%.
O=C1NC(=O)C(c2ccccc2)(c2ccccc2)N1 has an inhibition of -5.6%.
For CCCC(CCC)C(=O)O, the inhibition was -16.3%.
The inhibition of CO[C@H]1/C=C/O[C@@]2(C)Oc3c(C)c(O)c4c(O)c(c5c(nc6cc(C)ccn65)c4c3C2=O)NC(=O)/C(C)=C\C=C\[C@H](C)[C@H](O)[C@@H](C)[C@@H](O)[C@@H](C)[C@H](OC(C)=O)[C@@H]1C is reported as -41.9%.
The inhibition of CC(=O)N1CCN(c2ccc(OCC3COC(Cn4ccnc4)(c4ccc(Cl)cc4Cl)O3)cc2)CC1 (centres unmarked) is reported as -4.5%.
The inhibition of CN1CCCC(n2nc(Cc3ccc(Cl)cc3)c3ccccc3c2=O)CC1 (centres unmarked) is reported as 84.2%.
CC(CCc1ccccc1)NCC(O)c1ccc(O)c(C(N)=O)c1 (centres unmarked) gave an inhibition of -47.1%.
COc1cccc2c1C(=O)c1c(O)c3c(c(O)c1C2=O)C[C@@](O)(C(C)=O)C[C@@H]3O[C@H]1C[C@H](N)[C@H](O)[C@H](C)O1 has an inhibition of 95.6%.
With CO[C@H]1/C=C/O[C@@]2(C)Oc3c(C)c(O)c4c(O)c(c(/C=N/N5CCN(C)CC5)c(O)c4c3C2=O)NC(=O)/C(C)=C\C=C\[C@H](C)[C@H](O)[C@@H](C)[C@@H](O)[C@@H](C)[C@H](OC(C)=O)[C@@H]1C the inhibition was -50%.

Set 3
SMILES: C[C@@H](c1cccc(C#N)c1)n1cc(Cl)cc(C(N)=O)c1=N
Effect on: cell-free assay
Technique: competition with immobilised ligand
Tested at: 1 µM
BRSK2 (Homo sapiens, UniProt Q8IWQ3) — remaining binding: 95%.
For PRKCE (Homo sapiens, UniProt Q02156): remaining binding read 89%.
It gave 83% for remaining binding (PKN1 (Homo sapiens, UniProt Q16512)).
For CAMK1G (Homo sapiens, UniProt Q96NX5): remaining binding read 100%.
CLK3 (Homo sapiens, UniProt P49761) — remaining binding: 100%.
The remaining binding was 77% (SGK3 (Homo sapiens, UniProt Q96BR1)).
For CAMK2G (Homo sapiens, UniProt Q13555): remaining binding read 100%.
It gave 100% for remaining binding (Insulin receptor (INSR, Homo sapiens, UniProt P06213)).
It gave 93% for remaining binding (Tyrosine-protein kinase JAK1, JH2 (JAK1, Homo sapiens, UniProt P23458)).
The remaining binding was 100% (DAPK1 (Homo sapiens, UniProt P53355)).
For PI4KB (Homo sapiens, UniProt Q9UBF8): remaining binding read 85%.
LRRK2 (Homo sapiens, UniProt Q5S007, G2019S) — remaining binding: 100%.
NTRK3 (Homo sapiens, UniProt Q16288) — remaining binding: 0%.
MYLK4 (Homo sapiens, UniProt Q86YV6) — remaining binding: 100%.
MAP2K6 (Homo sapiens, UniProt P52564) — remaining binding: 100%.
The remaining binding was 86% (DCLK3 (Homo sapiens, UniProt Q9C098)).
CAMK4 (Homo sapiens, UniProt Q16566) — remaining binding: 82%.
The remaining binding was 100% (NTRK2 (Homo sapiens, UniProt Q16620)).
It gave 91% for remaining binding (PRKD2 (Homo sapiens, UniProt Q9BZL6)).
It gave 100% for remaining binding (HUNK (Homo sapiens, UniProt P57058)).
It gave 74% for remaining binding (TESK1 (Homo sapiens, UniProt Q15569)).
PRKG1 (Homo sapiens, UniProt Q13976) — remaining binding: 100%.
It gave 100% for remaining binding (CDK14 (Homo sapiens, UniProt O94921)).
The remaining binding was 100% (FGFR4 (Homo sapiens, UniProt P22455)).
NLK (Homo sapiens, UniProt Q9UBE8) — remaining binding: 91%.

Set 4
Target: Dual specificity tyrosine-phosphorylation-regulated kinase 1A (DYRK1A, Homo sapiens, UniProt Q13627)
Effect on: enzyme activity
Mode: inhibitor
Tested at: 0.5 µM
Relative to: control
For Fc1ccc(-c2nc3n(c2-c2ccncc2)CCS3)cc1, the remaining activity was 97.5%.
Cc1cc(Nc2nc(-c3ccccc3)nc3ccccc23)n[nH]1 has a remaining activity of 104%.
O=C1Cc2c([nH]c3ccc([N+](=O)[O-])cc23)-c2ccccc2N1 has a remaining activity of 86.2%.
For Nc1ncnc2c1cnn2-c1ccccc1, the remaining activity was 96.8%.
O=S(=O)(NCCNC/C=C/c1ccc(Br)cc1)c1cccc2cnccc12 has a remaining activity of 98.5%.
CC(C)(C)n1nc(Cc2cccc3ccccc23)c2c(N)ncnc21 gave a remaining activity of 92.5%.
The remaining activity of Oc1ccc(Nc2nc(-c3ccc(Cl)cc3)cs2)cc1 is reported as 96.6%.
Cc1cncc2cccc(S(=O)(=O)N3CCCN(C(=O)CN)C[C@@H]3C)c12 has a remaining activity of 93.1%.
O=C1NC(=O)C(c2c[nH]c3ccccc23)=C1c1c[nH]c2ccccc12 has a remaining activity of 80.8%.
With Nc1nc(Nc2ccc(S(N)(=O)=O)cc2)nn1C(=O)c1c(F)cccc1F the remaining activity was 101%.
CCc1[nH]c(-c2ccc(OC)cc2)nc1-c1ccncc1 has a remaining activity of 97.7%.
The remaining activity of NC(=O)c1ccc(N(C(N)=O)c2c(F)cccc2F)nc1-c1ccc(F)cc1F is reported as 98.7%.
Nc1nccc(-c2c(-c3ccc(F)cc3)ncn2C2CCNCC2)n1 gave a remaining activity of 96.3%.
CC#CC(=O)Nc1cc2c(Nc3ccc(F)c(Cl)c3)ncnc2cn1 gave a remaining activity of 96.4%.
For N#CC(=C(N)Sc1ccc(N)cc1)c1ccccc1C(F)(F)F, the remaining activity was 93.9%.
CC(=O)c1ccc(N2CCOCC2)cc1O gave a remaining activity of 98%.
For CC[n+]1c(/C=C/N(C)c2ccccc2)n(-c2ccccc2)c2ccc(-c3nc4ccccc4s3)cc21, the remaining activity was 96.7%.
The remaining activity of CSc1nc(-c2ccnc(N[C@@H](C)c3ccccc3)c2)c(-c2ccc(F)cc2)[nH]1 (racemic) is reported as 97.9%.
The remaining activity of Cc1ccc(NC2=CC(=O)c3sc(C)nc3C2=O)cc1 is reported as 103%.
For COc1ccc(S(=O)(=O)N(CCO)c2ccccc2CN(C)CC=Cc2ccc(Cl)cc2)cc1, the remaining activity was 102%.

A few entries again (set 3):
It gave 100% for remaining binding (Insulin receptor (INSR, Homo sapiens, UniProt P06213)).
For PI4KB (Homo sapiens, UniProt Q9UBF8): remaining binding read 85%.
It gave 83% for remaining binding (PKN1 (Homo sapiens, UniProt Q16512)).
It gave 100% for remaining binding (CDK14 (Homo sapiens, UniProt O94921)).
